Results collected from several papers.
A part holds a random share of what one study measured. Positions count from the first letter of the parent shown.

Block 1
Target: UBE2Z UBC core domain (UniProt Q9H832)
Technique: yeast two-hybrid
Sample: yeast
Notes: mostly zero background
Reference: not given
Direction: higher = stronger interaction
B1: TRIM41 RING domain (UniProt Q8WV44); chain PVQTLQEEAVCAICLDYFTDPVSIGCGHNFCRVCVTQLWGGEDEEDRDELDREEEEEDGEEE
B2: RNF6 RING domain (UniProt Q9Y252); chain NSIDSELGKICSVCISDYVTGNKLRQLPCMHEFHIHCIDRWLSENCTCPICRQPVLGSNIAN
B3: CNOT4 RING domain (UniProt O95628); chain MSRSPDAKEDPVECPLCMEPLEIDDINFFPCTCGYQICRFCWHRIRTDENGLCPACRKPYPED
B4: MARCHF1 RING domain (UniProt Q8TCQ1); chain TAPRSQSRLSVCPSTQDICRICHCEGDEESPLITPCRCTGTLRFVHQSCLHQWIKSSDTRCCELCKYDFIMETKLKPLRKWE
B5: MKRN3 RING domain (UniProt Q13064); chain FAVQRGMDKVCGICMEVVYEKANPNDRRFGILSNCNHSFCIRCIRRWRSARQFENRIVKSCPQCRVTSELVIPSE
B6: BFAR RING domain (UniProt Q9NZS9); chain GPQISVSEFSCHCCYDILVNPTTLNCGHSFCRHCLALWWASSKKTECPECREKWEGFPKVS
B7: ARIH2 RING domain (UniProt O95376); chain HVPTSHPPHHCAVCMQFVRKENLLSLACQHQFCRSCWEQHCSVLVKDGVGVGVSCMAQDCPLRTPEDFVF
B8: RUFY1 RING domain (UniProt Q96T51); chain QALKGHAWLKDDEATHCRQCEKEFSISRRKHHCRNCGHIFCNTCSSNELALPSYPKPVRVCDSCHTLLLQRCSSTAS
Residues (chain): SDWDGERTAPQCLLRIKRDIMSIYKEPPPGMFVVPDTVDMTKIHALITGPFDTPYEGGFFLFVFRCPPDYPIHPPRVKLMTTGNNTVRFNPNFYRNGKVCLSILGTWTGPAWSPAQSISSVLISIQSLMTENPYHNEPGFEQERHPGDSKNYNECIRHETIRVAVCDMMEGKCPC
Sequence	lacZ reporter activity
B1 (TRIM41 RING domain)	0
B2 (RNF6 RING domain)	0
B3 (CNOT4 RING domain)	0
LEALSSDFLACKICLEQLRAPKTLPCLHTYCQDCLAQLADGGRVRCPECRETVPVPPEGV (TRIM56 RING domain (UniProt Q9BRZ2))	0
FAEQPSVKLCCQLCCSVFKDPVITTCGHTFCRRCALKSEKCPVDNVKLTVVVNNI (TRAF7 RING domain (UniProt Q6Q0C0))	0
B4 (MARCHF1 RING domain)	0
FDPPLESKYECPICLMALREAVQTPCGHRFCKACIIKSIRDAGHKCPVDNEILLENQLFP (TRAF6 RING domain (UniProt Q9Y4K3))	0
B5 (MKRN3 RING domain)	0
B6 (BFAR RING domain)	0
ASEEEFQFLRCQQCQAEAKCPKLLPCLHTLCSGCLEASGMQCPICQAPWPLGADTP (PML RING domain (UniProt P29590))	0
B7 (ARIH2 RING domain)	0
B8 (RUFY1 RING domain)	0

Block 2
Target: Hepatocyte nuclear factor 3-alpha (Foxa1, Mus musculus, UniProt P35582, residues 1-468, full length assumed)
UniProt P35582, sequence (whole entry, looked up): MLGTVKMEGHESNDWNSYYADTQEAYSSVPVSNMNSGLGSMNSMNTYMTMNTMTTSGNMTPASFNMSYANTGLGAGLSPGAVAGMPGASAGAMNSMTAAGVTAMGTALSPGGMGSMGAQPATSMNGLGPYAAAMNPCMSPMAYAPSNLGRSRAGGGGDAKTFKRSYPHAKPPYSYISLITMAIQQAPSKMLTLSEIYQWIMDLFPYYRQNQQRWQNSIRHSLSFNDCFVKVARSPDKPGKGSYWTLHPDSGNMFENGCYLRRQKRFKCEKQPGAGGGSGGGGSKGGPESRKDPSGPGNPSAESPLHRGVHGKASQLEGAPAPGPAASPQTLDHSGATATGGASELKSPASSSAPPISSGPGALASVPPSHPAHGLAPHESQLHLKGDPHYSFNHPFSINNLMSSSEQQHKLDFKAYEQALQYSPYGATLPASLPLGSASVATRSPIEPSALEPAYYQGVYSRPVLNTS
Technique: EMSA with sequencing
Molecule type: double-stranded DNA, one strand shown
Sample: in vitro
Concentration: 10 and 20 nM
Notes: whole designed probe, mean of two concentrations, ends assumed
Reference: negative control set to 0
Direction: higher = stronger binding
All sequences stand within: GTGAGCGGTGCCCATTGATGGGGAAC … TTTCACTGGGATCGTGGGGAC
Sequence	normalised bound fraction
TTGTTACAAATAATGAGAAAACATTTAGTGAAACACTTTAAACGTGTTTTTTTAAAAGAATATTTATTGTCTTATTGCTAAGAAAGAGTTCAGTGTAAACATGTATCAGTTTATCACTTGCTCAGAAGAAATTACTTAAAAATAAATGAGGTTGGTTTAGACGTACTAGTCTATTTTTACTGAAACACAAGCA	0.154 ratio
ACCCCTGAACTTAAATAAAAGTTAACAAACCCCACAAATCCCTACATGAAAAGACAGGGCTAATTAGCTAATTGGTAGTAATACTATTAGCAGAGATTACTGAGTGCTTGTATCAGCCAGACACTGGTCTCAGAGCTTGAGATGCTTTAGCTCATTAAGTTAATTGGCCCATGAGTTGGGTACCATTACTGCC	0.0719 ratio
AGATTGCTTTGTGATTGTTTTGCCAGATTTTGCTTTCACCCACAAAAACACTAAGCTCTGCCAACCAGTTCGGCCATTTTGTAAGTTAGCAAAATAATCTCTAAAGTGAAATGGCGGCTTTTGGGCGGGGCTCCCACAGGCTGGCTCCTTTTAAGTGGAATGTTGCTGTGCTGCCCTCTTGTGGCCATTTGGG	-0.0267 ratio
TAATGTATTATTTAGGAATCTACTTATGGGACCCATATCCATGAGAAACGTGAAGAGCGAGAAGCAAGATTCTGTAACACTGTCCACGATATTGTAAACAGAGGAGGCAGGGGTCTCATTCCTGTCTTTGCTCTTGGAAGGGCTCAGGAGCTGCTCTTGATTCTAGGTATGCCATTTCCTTTGTATTTAGGCG	0.213 ratio
ATCTTCCCCCTCTTCCCCCTCACGTCAGCTCACCTTCCCGGGTTATTTGCAGATAGGAAAATAAATAAAGCCGGCATTCGTTAACCCTCTTCTGGCGCAAACTGCTGTTTGCTCTGGATGAATCATGGTCCTTTGGCGACGCCAGGCTCCGGGAGAGCAAAGCACCGTGTCAGGGCCATGATCCGGGGTGGCC	0.329 ratio
TTATGATCTGAGTATATATAGTAAGTACCTCCCCTTTCAGGGTAAGGCAGTAGGTAATGGTGAACAGGGAAGCAAAAGGTGACTCAGGTTGAGTAAACAACACCAAGCATATCTGACTCAAGGAATGCTTCAGAGGCCAGGGGTGCATGCCTGTAATCCCAGCACCTTGGAAGGCTGACACAGGAGGATCACT	0.397 ratio
CGGGGGCAGGTGAGCCTGCAGCTCCATGGCCCATGTCTGACTCTTCTCCCAGTGGCCATGGCTGGCTGCATGCAATGTTGACTCATCCCTGTGTACACATGGCATATTTATTTTTAATTCATATTAGGAATGTGCACCAACTTGTGTGTGAAAAATGGCAGAAACGATTCCACCTCTGTACAAATTTCATACA	0.364 ratio
ATCTTCCCCCTCTTCCTTGCCCCACCAGCTCACCTTCCCGGGTTGTTTACTTTGAGCAAAGTAAACAAAGCCGGCATTCGTTAACCCTCTTCACGCGCATACTGCTGTTTACTTTGGATGAATCATGGTCCTTTGGCGACGCCAGGCTCCGGGAGAGCAAAGCACCGTGTCAGGGCCATGATCCGGGGTGGCC	0.54 ratio

Block 3
Target: RING finger protein unkempt homolog, zinc fingers 1-6, GST-SBP tag (UNK, Homo sapiens, UniProt Q9C0B0, residues 30-357)
UniProt Q9C0B0, sequence (30-357, looked up): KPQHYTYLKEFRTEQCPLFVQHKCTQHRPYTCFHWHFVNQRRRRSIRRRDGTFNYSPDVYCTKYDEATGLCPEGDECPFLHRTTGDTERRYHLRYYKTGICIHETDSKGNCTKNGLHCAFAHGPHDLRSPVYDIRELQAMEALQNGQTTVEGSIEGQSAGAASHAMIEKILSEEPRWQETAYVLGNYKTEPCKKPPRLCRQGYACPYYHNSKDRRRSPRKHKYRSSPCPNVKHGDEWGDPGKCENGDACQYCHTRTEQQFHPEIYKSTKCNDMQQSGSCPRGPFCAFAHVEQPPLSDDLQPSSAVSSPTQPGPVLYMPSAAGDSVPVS
Technique: RNA Bind-n-Seq
Molecule type: RNA
Sample: in vitro
Concentration: not given
Notes: RNA with constant flanks, human and mouse sites, ends assumed
Reference: input RNA pool
Direction: higher = stronger binding
All sequences stand within: GGGAGUUCUACAGUCCGACGAUC … CAACAGAGGAUUGAGCAUCA
Sequence	bound/input enrichment [ratio]
GAUCAGAAAAGGAAAGAAAGAAAAGCUCAGAGGCAAGCAGCAAAAAAUCAAAUGUAUGACGAUUACUACUAUUAUGGUCCACCUCAUAUGCCCCCUCCAACAAGAGGUCGAGGGCGUGGA	0.477
CCACCAUUGCCUCCUGAGGAACCACCAGAGGGUCCAGCAUUGCCCACUGAGCAGUCAGCAUUAACAGCUGAAAAUACUUGGCCUACAGAGGUGCCAUCAUCACCAUCUGAAGAGUCUGUA	0.171
UUCAAGAAGUCAAAGCUAAUGAGACAUCAAAAAAGUCACUUAGGGGAAAAACCGAAUAGGUGUGCUGAGUUUGGAAAAAUAUUCCCUGAAAAGUCACAGCUCCUGACACAUCAAAAAAGC	0.158
UUCCAUUUAGCUUACAUGUAAAUGUAAUUAUUUAAAACACACACACUGCUCUGCGUUGUAUAGUUUUUCCUUUUUUGUAUGUAACAGAACACAUUUCAGAUUGUAUUUAAUUUAAAUAUU	15.1
GAAGCCUGCGUAACUUUCUCCCUUGAUCCGGGAGUCUUUCCACUGGAUUCACAAUGACAUCCUUUCAAGAAGUCCCAUUGCAGACUUCCAACUUUGCCCAUGUCAUCUUUCAAAAUGUGG	0.112
AUCUAAACUUAGAUGGAGUUGGUCAAAUGAGGGAACAUCUGGGUUAUGCCUUUUUUAAAGUAGUUUUCUUUAGGAACUGUCAGCAUGUUGUUGUUGAAGUGUGGAGUUGUAACUCUGCGU	0.387
AGCAGCACGAUCUCUGGGGGUUAUGCAGAGUAUGCUCUUGCAGCAGACCACACUGUUUACAAACUACCUGAAAAACUGGACUUUAAACAAGGAGCUGCCAUCGGCAUUCCAUAUUUUACU	0.152
AUUGAGUGCGGCUGGAAGGAUCAGCUAAAGGCACACUGUAAAGGUAAUUAAAGAAAAAGGACUAGAACACGUUACUGUUGAUGACUUGGUGGCUGAAAUCACUCCAAAAGGCAGAGCCCU	0.19
CGUCAGAAGAUACAGAGGGAAUUAAUGAAGCUGGAACAAGAAAACAUGGAGAAGAGAGAAGAAAUUAUCAUUAAAAAGGAGGUUUCACCAGAAGUGGUUAGAUCAAAAUUGUCCCCGUCA	0.662
GUGUGAGCCUGCGCAGGACAGUUUCAGGUGGUUUUAAAGAACACGUGGAAAUCCCUUGAAUUUAGGACCUGGUUAACCAGAAAGAUAAGACUGUUCUUAACGACCUAGAUGAUUCUGUUC	0.26
GUGGACACACAGCACUUAAUUAAGCAGCUGAAGCAGCACUUUGCUAUGCUCUGAUCAGUGCUUGGGCCACAUAAGCCUUCACGGAGGGCCAGCGCACAGGGAAGAAAACGCACUGAGUGC	0.208

Block 4
Target: CCNA2, cyclin fold, Cln2 fusion (human)
Technique: yeast growth competition, sequencing
Sample: yeast
Notes: strong parent motif
Reference: not given
Direction: higher = stronger binding
Starting sequence: PKN2 docking peptide (human); VSAVRKLDFSDTM
Change	normalised enrichment score
S10T	5.3
K6P	-0.123
T12G	4.49
V4Q	5.5
K6F	4.4
D8A	4.21
F9W	3.38
R5Y	0.514
F9G	0.477
L7V	0.509
D8P	2.76
T12W	5.08
D11E	4.94
K6Q	4.49
S2H	5.19
F9E	-0.154
S2Y	4.67
D8R	4.35
K6I	3.15
R5K	4.52
R5V	1.97
L7H	0.257
F9A	-0.442
F9Y	3.67
K6A	4.49

A few entries again (block 2):
Sequence	normalised bound fraction
AGATTGCTTTGTGATTGTTTTGCCAGATTTTGCTTTCACCCACAAAAACACTAAGCTCTGCCAACCAGTTCGGCCATTTTGTAAGTTAGCAAAATAATCTCTAAAGTGAAATGGCGGCTTTTGGGCGGGGCTCCCACAGGCTGGCTCCTTTTAAGTGGAATGTTGCTGTGCTGCCCTCTTGTGGCCATTTGGG	-0.0267 ratio
TAATGTATTATTTAGGAATCTACTTATGGGACCCATATCCATGAGAAACGTGAAGAGCGAGAAGCAAGATTCTGTAACACTGTCCACGATATTGTAAACAGAGGAGGCAGGGGTCTCATTCCTGTCTTTGCTCTTGGAAGGGCTCAGGAGCTGCTCTTGATTCTAGGTATGCCATTTCCTTTGTATTTAGGCG	0.213 ratio
TTATGATCTGAGTATATATAGTAAGTACCTCCCCTTTCAGGGTAAGGCAGTAGGTAATGGTGAACAGGGAAGCAAAAGGTGACTCAGGTTGAGTAAACAACACCAAGCATATCTGACTCAAGGAATGCTTCAGAGGCCAGGGGTGCATGCCTGTAATCCCAGCACCTTGGAAGGCTGACACAGGAGGATCACT	0.397 ratio
ATCTTCCCCCTCTTCCTTGCCCCACCAGCTCACCTTCCCGGGTTGTTTACTTTGAGCAAAGTAAACAAAGCCGGCATTCGTTAACCCTCTTCACGCGCATACTGCTGTTTACTTTGGATGAATCATGGTCCTTTGGCGACGCCAGGCTCCGGGAGAGCAAAGCACCGTGTCAGGGCCATGATCCGGGGTGGCC	0.54 ratio
ACCCCTGAACTTAAATAAAAGTTAACAAACCCCACAAATCCCTACATGAAAAGACAGGGCTAATTAGCTAATTGGTAGTAATACTATTAGCAGAGATTACTGAGTGCTTGTATCAGCCAGACACTGGTCTCAGAGCTTGAGATGCTTTAGCTCATTAAGTTAATTGGCCCATGAGTTGGGTACCATTACTGCC	0.0719 ratio
TTGTTACAAATAATGAGAAAACATTTAGTGAAACACTTTAAACGTGTTTTTTTAAAAGAATATTTATTGTCTTATTGCTAAGAAAGAGTTCAGTGTAAACATGTATCAGTTTATCACTTGCTCAGAAGAAATTACTTAAAAATAAATGAGGTTGGTTTAGACGTACTAGTCTATTTTTACTGAAACACAAGCA	0.154 ratio
CGGGGGCAGGTGAGCCTGCAGCTCCATGGCCCATGTCTGACTCTTCTCCCAGTGGCCATGGCTGGCTGCATGCAATGTTGACTCATCCCTGTGTACACATGGCATATTTATTTTTAATTCATATTAGGAATGTGCACCAACTTGTGTGTGAAAAATGGCAGAAACGATTCCACCTCTGTACAAATTTCATACA	0.364 ratio
